Measured values pooled from the literature.
Numbers after ± are the reported error.
Cell line: MCF7

`CC(=O)N1CCCC[C@H]1C(=O)NC(C)(C)C(=O)N1CCCC[C@H]1C(=O)NC(C)(C)C(=O)NC(C)(C)C(=O)N[C@@H](CC(C)C)C(=O)N[C@@H](C)CC(=O)NCC(=O)NC(C)(C)C(=O)NC(C)(C)C(=O)N1CCCC[C@H]1C(=O)NC(C)(C)C(=O)NCC(=O)N[C@@H](CC(C)C)C(=O)NC(C)(C)C(=O)N[C@@H](CC(C)C)C[N+]1=C2CCCN2CCC1` has a GI50 of 8.8 nM (cell growth or viability, SRB; 48 h).
`O=C1c2ccccc2C(=O)c2c1ccc1c2C(C(=O)Nc2ccccc2)C(=O)C1c1ccccc1` (centres unmarked) gave a selectivity index of 1.18 (reference: Vero IC50 over MCF7 IC50).
With `CC(N)C(O)CCCCCCCCCCCCCCC(=O)CCCCCCCC(O)C(C)N` (centres unmarked) the selectivity index was 2.7 (cytotoxicity, resazurin; reference: MCF-12A over MCF7).
`Cc1cccc(O)c1C(=O)OCC1(O)C(Nc2ccc3c(c2)Cc2ccccc2-3)C(N)C(NC(=O)N(C)C)(C(C)O)C1(C)O` (centres unmarked) has a GI50 of 730 nM (cell growth or viability, SRB).
For `CC(=O)N1CCCC[C@H]1C(=O)NC(C)(C)C(=O)N1CCCC[C@H]1C(=O)NC(C)(C)C(=O)NC(C)(C)C(=O)N[C@@H](CC(C)C)C(=O)NCCC(=O)N[C@H](C)C(=O)NC(C)(C)C(=O)NC(C)(C)C(=O)N1CCCC[C@H]1C(=O)NC(C)(C)C(=O)NCC(=O)N[C@@H](CC(C)C)C(=O)NC(C)(C)C(=O)N[C@@H](CC(C)C)C[N+]1=C2CCCN2CCC1`, the GI50 was 104 nM (cell growth or viability, SRB; 48 h).
For `COc1cc(/C=C(\C#N)C(=O)Nc2nnc(C(F)(F)F)s2)ccc1OC(=O)N1CCN(C(=O)CCCC(=O)NCCCC[C@@H]2NC(=O)[C@@H](Cc3ccc(O)cc3)NC(=O)[C@H](CC(=O)O)NC(=O)CNC(=O)[C@H](CCCNC(=N)N)NC2=O)CC1`, the GI50 was 50000 nM (cell growth or viability, MTT).
Under “early apoptotic cells”, `C=CC[P](c1ccccc1)(c1ccccc1)[Pt]([S]c1ccccn1)([S]c1ccccn1)[P](CC=C)(c1ccccc1)c1ccccc1` is recorded as 62.9% (annexin V/7-AAD flow cytometry; 10 µM).
`CC(C)C[C@@H](NC(=O)[C@H](C)NC(=O)CNC(=O)[C@@H](NC=O)C(C)C)C(=O)N[C@@H](C)C(=O)N[C@@H](C(=O)N[C@H](C(=O)N[C@@H](C(=O)N[C@@H](Cc1c[nH]c2ccccc12)C(=O)N[C@H](CC(C)C)C(=O)N[C@@H](Cc1c[nH]c2ccccc12)C(=O)N[C@H](CC(C)C)C(=O)N[C@@H](Cc1c[nH]c2ccccc12)C(=O)N[C@H](CC(C)C)C(=O)N[C@@H](Cc1c[nH]c2ccccc12)C(=O)NCCO)[C@H](C)O)C(C)C)C(C)C` gave an LC50 of greater than 5000 nM (sulforhodamine B; 48 h).
`O=C1c2ccccc2C(=O)c2c1ccc1c2C(C(=O)NCc2ccccc2)C(=O)C1c1ccccc1` (centres unmarked) gave a selectivity index of 2.51 (reference: Vero IC50 over MCF7 IC50).
For `CC(=O)N1CCCC[C@H]1C(=O)NC(C)(C)C(=O)N1CCCC[C@H]1C(=O)NC(C)(C)C(=O)NC(C)(C)C(=O)N[C@@H](CC(C)C)C(=O)NC[C@H](C)C(=O)NCC(=O)NC(C)(C)C(=O)NC(C)(C)C(=O)N1CCCC[C@H]1C(=O)NC(C)(C)C(=O)NCC(=O)N[C@@H](CC(C)C)C(=O)NC(C)(C)C(=O)N[C@@H](CC(C)C)C[N+]1=C2CCCN2CCC1`, the GI50 was 14 nM (cell growth or viability, SRB; 48 h).
For `CC(=O)N[C@@H](CCCNC(=N)N)C(=O)N[C@@H](CCCNC(=N)N)C(=O)N[C@@H](CCCNC(=N)N)C(=O)N[C@@H](CCCNC(=N)N)C(=O)N[C@@H](CCCNC(=N)N)C(=O)N[C@@H](CCCNC(=N)N)C(=O)N[C@@H](CCCNC(=N)N)C(=O)N[C@@H](CCCNC(=N)N)C(=O)N[C@@H](CCCNC(=N)N)C(=O)N[C@@H](CCCNC(=N)N)C(=O)NCC(=O)N[C@@H](COP(=O)(O)O)C(=O)N1CCC[C@H]1C(=O)N[C@H](C(=O)N[C@@H](Cc1ccccc1)C(=O)O)[C@@H](C)O`, the G2/M cells was 40.3 ± 1.8% (flow cytometry; 100 µM, 24 h, added: irradiation 15 Gy).
With `C#CCOCC1=C(C(=O)OCC)C(c2cccc(Cl)c2)N2C=CSC2=N1` (centres unmarked) the viability was 58% (MTT; 100 µM, 48 h).
`O=C1c2ccccc2C(=O)c2c1ccc1c2C(C(=O)Nc2ccc(Cl)cc2)C(=O)C1c1ccccc1` (centres unmarked) gave a CC50 of greater than 100 µg/mL (cytotoxicity).
`CC=C(C)C(=O)OC1C(O)C2OC(COC(=O)CCCCCCCCCC(CCCCC)OC3OC(C)C(OC(C)=O)C(O)C3O2)C1OC(=O)C=Cc1ccccc1` (centres unmarked) has a selectivity index of 0.93 (reference: IC50 MCF-10A over IC50 MCF7).
For `CC(C)c1cnn2c(NCc3ccccc3)cc(N[C@@H](CO)[C@H](O)CO)nc12`, the surviving cells was 10% (sulforhodamine B; 2.5 µM).
For `CN1C(=O)C2(Cc3ccc(CC45SSC(CO)(C(=O)N4C)N(C)C5=O)cc3)SSC1(CO)C(=O)N2C` (racemic), “mRNA level change” read -1.8 (microarray, refers to: TFRC; 600 nM, unit not given, added: deferoxamine 300 µM; reference: deferoxamine alone).
The inhibition of `CC/C(=C\CC[C@H](C)C[C@@H](C)CC[C@H](O)[C@H](C)C(=O)CC(O)[C@H](C)[C@@H](C)OC(=O)C[C@@H](O)C1=C(C)C(=O)OC1=O)C(O)CC(=O)O` (some centres unmarked) is reported as 8% (cell growth or viability, MTT; 20 µM, 48 h).
For `Cc1cc(C)n2c1C=C1C=CC(CCC(=O)NCCCCCC(=O)NCCOCCOCCOCCOCCOCCOCCNC(=O)[C@H](Cc3c[nH]c4ccccc34)NC(=O)[C@@H](CC(C)C)NC(=O)[C@H](Cc3c[nH]c4ccccc34)NC(=O)[C@@H](CC(C)C)NC(=O)[C@H](Cc3c[nH]c4ccccc34)NC(=O)[C@@H](CC(C)C)NC(=O)[C@H](Cc3c[nH]c4ccccc34)NC(=O)[C@H](NC(=O)[C@@H](NC(=O)[C@H](NC(=O)[C@H](C)NC(=O)[C@@H](CC(C)C)NC(=O)[C@H](C)NC(=O)CNC(=O)[C@@H](NC=O)C(C)C)C(C)C)C(C)C)[C@H](C)O)=[N+]1[B-]2(F)F`, the LC50 was greater than 5000 nM (sulforhodamine B; 48 h).
`C[C@@H](N)[C@H](O)CCCCCCCC(=O)CCCCCCCCCCCCCC[C@@H](O[C@@H]1O[C@H](CO)[C@@H](O)[C@H](O)[C@H]1O)[C@@H](N)CO` has a selectivity ratio of 3.4 (reference: IC50 MCF-12A over IC50 MCF7).
`O=C1c2ccccc2C(=O)c2c1ccc1c2C(C(=O)Nc2ccc(Br)cc2)C(=O)C1c1ccccc1` (centres unmarked) has a selectivity index of 1.45 (reference: Vero IC50 over MCF7 IC50).
The GI50 of `Cc1cc(C)n2c1C=C1C=CC(CCC(=O)NCCCCCC(=O)NCCOCCOCCOCCOCCOCCOCCNC(=O)[C@H](Cc3c[nH]c4ccccc34)NC(=O)[C@@H](CC(C)C)NC(=O)[C@H](Cc3c[nH]c4ccccc34)NC(=O)[C@@H](CC(C)C)NC(=O)[C@H](Cc3c[nH]c4ccccc34)NC(=O)[C@@H](CC(C)C)NC(=O)[C@H](Cc3c[nH]c4ccccc34)NC(=O)[C@H](NC(=O)[C@@H](NC(=O)[C@H](NC(=O)[C@H](C)NC(=O)[C@@H](CC(C)C)NC(=O)[C@H](C)NC(=O)CNC(=O)[C@@H](NC=O)C(C)C)C(C)C)C(C)C)C(C)C)=[N+]1[B-]2(F)F` is reported as 170 nM (cell growth or viability, SRB; 48 h).
With `O=C1c2ccccc2C(=O)c2c1ccc1c2C(C(=O)Nc2ccccc2Cl)C(=O)C1c1ccccc1` (centres unmarked) the selectivity index was 1.48 (reference: Vero IC50 over MCF7 IC50).
`Cc1nn(-c2ccccc2)c2c1C(c1ccc3c(c1)OCO3)N(C(=O)c1ccncc1)N2` (centres unmarked) gave a selectivity index of 1.28 (reference: LC50 Vero over LC50 MCF7).
For `CC/C=C\C/C=C\C/C=C\C/C=C\C/C=C\C/C=C\CCC(=O)Nc1ccn(C2OC(CO)C(O)C2(F)F)c(=O)n1` (centres unmarked), the CC50 was 42300 nM.
For `Cc1cc(=O)[nH]c2c(/N=N/c3ccccc3)c(O)c(/N=N/c3ccccc3)cc12`, the selectivity index was 5.11 (cytotoxicity, MTT; reference: MCF7 over MCF-10A).
For `COc1ccc(NC(=O)C2C(=O)C(c3ccccc3)c3ccc4c(c32)C(=O)c2ccccc2C4=O)cc1` (centres unmarked), the selectivity index was 1.08 (reference: Vero IC50 over MCF7 IC50).
